# Results gathered from unrelated publications.
# Protocols differ between the studies behind these lines.
# Target: Serine/threonine-protein kinase ULK1 (ULK1, Homo sapiens, UniProt O75385)
SMILES,test,test system,setting,how to read,quantity,value
CN1CC[C@@H](COc2cnc(C#N)cc2-c2ccn3nc(NC(=O)C4CC4)cc3c2)C1,"enzyme activity, inhibitor",,1 µM,,inhibition,2%
CCn1cc(C(=O)O)c(=O)c2c(N)c(F)c(NC3CCCCC3)cc21,kinase activity,,"0.1 µM, with: ATP at Km",,inhibition,-2.8%
C=CC(=O)N1Cc2nc(-c3cc(-c4cc(Cl)cnc4Cl)c(F)cc3F)n(-c3ccncn3)c2C1,"cell-free assay, inhibitor",,1 µM,,inhibition,3.7%
Cc1cnc2nc1Nc1cccc(c1)COC/C=C/COCc1cc(ccc1OCCN1CCOCC1)N2,,,concentration not given,relative to: DMSO control,remaining binding,96%
COc1ccc(C(=O)N2CCN(CC(OCc3ccc4ccccc4c3)c3ccc(Cl)cc3Cl)CC2)cc1 (stereo not shown),"enzyme activity, inhibitor, ADP detection",,0.1 µM,,activity vs control,113%
Cc1ccc(C(=O)Nc2ccc(CN3CCN(C)CC3)c(C(F)(F)F)c2)cc1C#Cc1cnc2cccnn12,"target engagement, NanoBRET",human cells,,,Hill slope,46.9
CCN1CCN(Cc2ccc(NC(=O)c3ccc(C)c(NC(=O)c4cncc(-c5cnn(C)c5)c4)c3)cc2C(F)(F)F)CC1,"binding, competition with immobilised ligand",,1 µM,,remaining binding,100%
COc1cc(Nc2nc(C)cc(-c3cnn4nc(OC)ccc34)n2)cc(C(F)(F)F)c1,"binding, competition with immobilised ligand",,1 µM,,remaining binding,86%
Clc1ccc(C(Cn2ccnc2)OCc2ccc3ccccc3c2)c(Cl)c1 (stereo not shown),"enzyme activity, inhibitor, ADP detection",,0.1 µM,,activity vs control,102%
NC(=O)[C@@H](O)C[C@H]1CCc2sc3ncnc(O[C@H]4CC[C@H](N5CCOCC5)CC4)c3c21,"enzyme activity, inhibitor",,10 µM,,inhibition,-11%
O=C(Cc1ccc(OCc2ccccc2)cc1)NC1(C(=O)O)CCN(C(=O)c2ccc(-c3cccc(Cl)c3)cc2)CC1,"enzyme activity, inhibitor",,10 µM,,activity vs control,105%
C[C@]1(O)CCCN(c2nc(Nc3ccc(S(=O)(=O)N[C@H]4CC[C@H](CN5CCN(c6ccc(C7CCC(=O)NC7=O)cc6F)CC5)CC4)cc3)ncc2C(F)(F)F)C1 (stereo partly shown),"binding, competition with immobilised ligand",,1 µM,,remaining binding,1.3%
CN1CCN(Cc2ccc(-c3ccc(CO[C@H]4CCC[C@@H]4NC(=O)c4cc(-c5cnn(C)c5)cnc4N)cc3)cc2)CC1,"enzyme activity, inhibitor",,0.1 µM,,inhibition,7%
Clc1ccc(COC(Cn2cnc3ccccc32)c2ccc(Cl)cc2Cl)cc1 (stereo not shown),"enzyme activity, inhibitor, ADP detection",,0.1 µM,,activity vs control,104%
Nc1ncc2c(n1)-c1c([nH]c3ccc(C4=CCOCC4)cc13)CCC2,"binding, competition with immobilised ligand",,1 µM,,remaining binding,95%
Clc1ccc(C(Cn2ccnc2)OCc2ccc(Br)cc2)c(Cl)c1 (stereo not shown),"enzyme activity, inhibitor, ADP detection",,0.1 µM,,activity vs control,110%
Cc1ccc(-c2c(/C=C(\C#N)C(=O)NC(C)C)n(CCCO)c3ncnc(N)c23)cc1,"cell-free assay, competition with immobilised ligand",,1 µM,,remaining binding,100%
COc1c(Cl)cccc1Nc1c(-c2ccncc2C#C[C@@]2(C)CCCN2C(=O)/C=C/CN(C)C)[nH]c2c1C(=O)NCC2,"binding, competition with immobilised ligand",,3 µM,,remaining binding,81%
Clc1ccc(COC(Cn2cncn2)c2ccc(Cl)cc2Cl)cc1 (stereo not shown),"enzyme activity, inhibitor, ADP detection",,0.1 µM,,activity vs control,105%

# A few entries again:
SMILES,test,test system,setting,how to read,quantity,value
COc1cc(Nc2nc(C)cc(-c3cnn4nc(OC)ccc34)n2)cc(C(F)(F)F)c1,"binding, competition with immobilised ligand",,1 µM,,remaining binding,86%
NC(=O)[C@@H](O)C[C@H]1CCc2sc3ncnc(O[C@H]4CC[C@H](N5CCOCC5)CC4)c3c21,"enzyme activity, inhibitor",,10 µM,,inhibition,-11%
